Published values pooled from the literature.
Numbered parts are unrelated; each lists some results of a single study. Substitutions count along the parent as printed.

Series 1
Target: RNA binding protein fox-1 homolog 2, RRM domain, GST-SBP tag (RBFOX2, Homo sapiens, UniProt O43251-10, residues 100-194)
Technique: RNA Bind-n-Seq
Form: RNA
Matrix: in vitro
Concentration: 365 nM
Setting: natural RNA segment, single round, ends assumed
Baseline: no-protein control
Direction: higher = stronger binding
Constant ends, left off below: GGGAGUUCUACAGUCCGACGAUC … UGGAAUUCUCGGGUGCCAA
Residues (chain): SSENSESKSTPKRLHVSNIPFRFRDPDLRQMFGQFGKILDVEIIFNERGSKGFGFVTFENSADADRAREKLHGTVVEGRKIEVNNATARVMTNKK
Oligonucleotide	RBNS enrichment (R)
UGAUUUGAAAACUAAGUUCAUGUUAUAGAGUGGUUUACUGUACUAUACUUUCUCUUUUUUAUAUGAUGUCUAACAAAAAAAAAAUACAGCUCCAACAUUUUGAUUCCUGU	1.23
AAAGGUAAUAGUGGCACAAUGUUGCUAACUUUAGACAACUUUUAAUAAAUAUGGUUUCGUAAAGAAAUACAGUGAGUUUCCUUUGUGUGCACGCUGCCUUCCUGUGACUG	0.592
GUAUUUUGGUAUAGAGUAGGACCCAAGCUUCAUGCAUCUGUAUUUGGUAUAUGUCAAUGACGUGGAGUGAAAUUUGCUAUUAGAUCCUGGAGGCAAAUGGGUUGUACAAG	1.42
GUCAUAUAUGCUUAUUGUUUUGUUCCAUGUGAUUCUUGUUUCCCUAUGCUCUUUAAUGGAGAAUCUGUUGUCGAAAGGAAGAUGGCCAGAAAUAAGAACUUCAGGACCAC	1.17
UUUCUUCCUUUCGCAGCCAGUCAGUCUUUCAAACUAUUGACAGUAAGAUAAUUCUCACGUUCACACCUGGUGGCAGGCUUCACUGUAGGGACGGACAUUGCAGUUACACC	0.316
CAGAAGCCGAACAAGUGAGAGUAAUGUAUAAUUCUCUCAUUUUUUUGUAGGUCUCUAAUAAAGAACUUUAUGUGGUCCUUCUACCUCUUGCUGUGAAGAACAGAGCCCAC	0.275
CAGUGCUGCGGCGCUGUCUUUGCAGCAUUGCCAUGUCACCGUAGCCCCCUUCACUCUUGGAAGUUUGGGGCUUCAAGGUUUAUUCUGGCAAGAACACCUCGGAGCCACUG	0.267
UGGGGACUGUCCCUUAGGAAAGCCAUAAAAGUGAUUCCCAAUACUUUGCAAUUGCUUUUGAUUUUUAGUCCUUUGGAACAAAUGUGUGAUGUUAUGUCUGAUGUUGUGUU	0.706
UCCUCCUCCAGAAGCGGUGGUCCAGGGGGUGGGGCUCUUAGUCCCUCUGGCCUUCCCCAUAUUACACACCAGCACUUUAUAUAUUUUUGGCUCACAGGAGGAGUCUAGGG	0.662
AAACUAGACUUACAGGUAGGCUAGAUCAGAACGUUAACAUAUGAACCUGCAGAAAUCUGGUAAGACUUAAAUUCAGUGUGAGGAAUAACUCUAGUUCUCUCCUAUGAGCA	0.828
AAAAGGGCUGGCUGCUCUGACAUGGUGGGGCGUCUCCUGGGGCCUGGCUCGCUCUGGACCCUGCUCUCCCCAGCCACGUUCUGUAGUCUGUUGUACAUCUCAGGAACCCU	0.169
UCAGAUGAGGACCUCUUGGAAUAGCUCUUCAGAGGAGCUGGACCCAGCAUGGAUGGUGGAACCACAGUACCUCUUACACUCCCUGUGGCUCCAACUUCAGGAAAUAAAUU	2.23

Series 2
Target: Histone acetyltransferase KAT6A, both winged helices, GST fusion (KAT6A, Homo sapiens, UniProt Q92794, residues 1-181)
Technique: protein binding microarray
Form: double-stranded DNA, one strand shown
Matrix: in vitro
Concentration: not given
Setting: 8-mer, flanks averaged, mean of 2 arrays, mostly near background
Baseline: not given
Direction: higher = stronger binding
Construct (chain): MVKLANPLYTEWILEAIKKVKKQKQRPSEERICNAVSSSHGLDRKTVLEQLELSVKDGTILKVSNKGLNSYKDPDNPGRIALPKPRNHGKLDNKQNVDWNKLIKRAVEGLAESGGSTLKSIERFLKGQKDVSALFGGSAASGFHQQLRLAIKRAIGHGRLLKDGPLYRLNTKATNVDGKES
Oligonucleotide	E-score
CCTCCTGA	-0.128
CTAGACCC	-0.0654
TCGGTACA	0.0958
GCCTCACA	-0.139
CGTTTCAA	0.0558
TCAGATGA	-0.166
TCGCTTAA	0.12
AGATAGGC	-0.255
AGGCAAGG	-0.244
AGTAATAG	-0.07
GACCGCGC	0.3
AACAGCTC	-0.0625
AGACTGAA	0.0168
AAAAATTT	0.0146
AATATCAG	-0.2
CTAGCTTC	0.031
CTAGCGCA	0.151
AAGGGGGA	-0.214
CGGACTGA	0.125
ATATCCAC	-0.0586
CAACGGCC	0.248
CCTTGCTC	-0.104
AAACAGCC	-0.13

Series 3
Target: CCNB2, cyclin fold, Cln2 fusion (human)
Technique: yeast growth competition, sequencing
Matrix: yeast
Setting: weak parent motif
Baseline: not given
Direction: higher = stronger binding
Starting sequence: RP1L1 docking peptide (human); TLGLGPLSFTLED
Change	normalised enrichment score
TLGLGPLSFALED [T10A]	-0.79
TLGLAPLSFTLED [G5A]	-0.584
TLALGPLSFTLED [G3A]	-0.888
TLGAGPLSFTLED [L4A]	-0.832
TLGLGPLAFTLED [S8A]	-0.984
ALGLGPLSFTLED [T1A]	-0.538
TLGLGPLSFTLEA [D13A]	-1.17

Series 4
Target: Sox, HMG box (Pigoraptor chileana)
Technique: Spec-seq
Form: double-stranded DNA, one strand shown
Matrix: in vitro
Concentration: not given
Setting: whole probe, mean of replicates
Baseline: not given
Direction: lower = stronger binding
Constant ends, left off below: GAGTCGTCTCGTCAGCAC … CCGTAGAGCACTCAGGTC
Residues (chain): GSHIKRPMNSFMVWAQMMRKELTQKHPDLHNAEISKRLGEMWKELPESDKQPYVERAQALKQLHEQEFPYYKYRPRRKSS
Oligonucleotide	relative binding energy [ln ratio]
CATAGTC	-0.661
CATACCT	0.311
TCAGGTT	0.908
GACTGTT	-1.42
CATCAAT	0.154
CATGGCC	0.453
CATCGCG	0.919
CATAATC	-0.413
ACTAGTT	-0.43
GTGTGTT	-0.0659
GATTGTT	-2.91
GGCTGTT	-0.302

Series 5
Target: Phosphate system positive regulatory protein PHO4, full length, GST-tagged (PHO4, Saccharomyces cerevisiae, UniProt P07270, residues 1-312)
Technique: competition protein-binding microarray
Form: double-stranded DNA, one strand shown
Matrix: in vitro
Concentration: 2 µM
Setting: whole 60-bp probe, lowest competitor level
With: Cbf1 competitor, 0.05 µM
Direction: higher = stronger binding
Constant ends, left off below: … GTCTTGATTCGCTTGACGCTGCTG
Construct (chain): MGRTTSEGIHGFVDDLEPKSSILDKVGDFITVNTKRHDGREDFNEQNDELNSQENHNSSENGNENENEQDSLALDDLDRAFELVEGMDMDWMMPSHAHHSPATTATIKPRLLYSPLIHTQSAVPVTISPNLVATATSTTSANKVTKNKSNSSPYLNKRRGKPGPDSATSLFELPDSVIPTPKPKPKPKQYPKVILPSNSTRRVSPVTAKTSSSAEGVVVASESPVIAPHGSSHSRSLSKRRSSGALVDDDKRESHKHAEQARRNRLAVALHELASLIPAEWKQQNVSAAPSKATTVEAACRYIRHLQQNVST
Oligonucleotide	fluorescence intensity [a.u.]
GTCTTGTCTCATTGCATAGTGGGTGTCCCCACTTCA	4930
CGGGGTTAAGTTTGGAAGGTGGGTGGCTTGCAGCAG	5550
TTGTTTCTAGACCACCACGTGTGGATTGCAAAACAA	15700
CATACCCAACCTTGATCAGTGGGTGAAGATATTTGT	3420
TATGGCGAGCCACATCATGTGATTGCCGTTGAGGTT	6530
TTAAGCCAAATTTAGCACATGCAGTGGCAGTGGCAA	9390
CTTCTGTAAATTTGACCCGTGGGTGGACGCGCCCCG	7880
TGCGCAACAACTTTTCACGTGTTCTTATGTCTAGAA	14000
CTATACTGTCATAGACCCGTGTGGAGGAGGCAGCGC	7230
AGCGCATCCCAGACACTCGTGTATCTAAATCCCAGT	8230
TGCGCAACAACTTGTCACATCACTTTATGTCTAGAA	3710
CTTTCCTTGGTCGCCGGCGTGACGGATTCGCTGGCG	5050
AAATTACTAAGTTTTCACGTGGTATACCCCGTATGA	13400
AAATTACTAAGTTTGCACGTGTTTTACCCCGTATGA	17800
TACCCGGATACTTATCATGTTATGGTCTTTAATCAA	4320
CATACCCAACCTTGCATTGTGGGTGAAGATATTTGT	6090
CGGGGTTAAGTTTGGTGGGTGGGTGGCTTGCAGCAG	5040
TCCTTGTTGACTTACCACATGTGTGGCCGCCTTTTA	9700
GTCTTGTCTCATTGTGCTGTGGGTGTCCCCACTTCA	5060
CGTCCTAGTGATTGTCACGTAACTTCCATGAGGAAG	4780
TTCAGAGAACTCCTTCATGTGCTTCAAGACAGAGTC	6150
ATTTCCTCCCGTCTCTGCGTGCCAGACGGGATCAGC	8180
TTCTACAAAGCATTTCACATGCTAATAAAAGCCCCG	6830
ACTACAGACAAAAAACCCGTGGCCGACCGAACCGAA	10700
CTAACGAAGGTTTGTCACAATACTTACAAGCCAAGT	3710

Series 6
Target: Interferon regulatory factor 7, full length, phosphomimetic (IRF7, Homo sapiens, UniProt Q92985, residues 1-503, S101K/S471D/S472D/S475D/S476D/S477D/S483D/S484D/S487D)
Technique: protein-binding microarray
Form: double-stranded DNA, one strand shown
Matrix: in vitro
Concentration: 250 nM
Setting: 60-bp whole probe
With: salmon DNA 0.4 mg/ml
Baseline: random background probes
Direction: higher = stronger binding
Constant ends, left off below: GCCTAGCAC … GTCTTGATTCGCTTGACGCTGCTG
Target sequence (chain): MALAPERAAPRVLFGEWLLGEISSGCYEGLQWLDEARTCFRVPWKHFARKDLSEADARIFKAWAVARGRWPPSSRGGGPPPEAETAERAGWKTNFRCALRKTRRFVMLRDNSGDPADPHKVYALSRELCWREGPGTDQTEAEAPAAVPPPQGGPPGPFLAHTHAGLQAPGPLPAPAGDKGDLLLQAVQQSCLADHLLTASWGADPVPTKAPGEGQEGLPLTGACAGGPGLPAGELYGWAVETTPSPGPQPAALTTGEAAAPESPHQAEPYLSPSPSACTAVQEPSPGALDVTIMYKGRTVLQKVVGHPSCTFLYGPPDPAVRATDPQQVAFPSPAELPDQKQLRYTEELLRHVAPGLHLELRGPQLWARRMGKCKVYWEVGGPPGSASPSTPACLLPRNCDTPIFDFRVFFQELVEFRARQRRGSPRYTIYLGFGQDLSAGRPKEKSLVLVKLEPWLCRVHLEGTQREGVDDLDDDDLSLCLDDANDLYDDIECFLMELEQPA
Oligonucleotide	log fluorescence
TCACTTCTCCCTTTCAGACTGTGCTAG	1.24 z-score
TTAGGTCTCCTTTTCCTTGAGTGCTAG	1.72 z-score
TCATGACTCTTTCTGTCACTGTGCTAG	0.185 z-score
GAAGGTATCGGTCTCGGGACGTGCTAG	0.687 z-score
TTAGGACTGGGTATCGGTTAGTGCTAG	0.514 z-score
TTAGGTCTCGGTATCGTTTAGTGCTAG	3.44 z-score
CCCATTCCAGGGTTTTATGGAGTGCTA	0.807 z-score
GACGGACTGGACACTGTGGACGTGCTA	-0.643 z-score
GACGGTATCGGGTATTGGGACGTGCTA	0.011 z-score
GCTCATCTGTCATGTTTGTCAGTGCTA	0.0641 z-score
TCAATTCTCACTGCAGCACTGTGCTAG	0.514 z-score
TTAGATTTCAGGATCGATTAGTGCTAG	0.766 z-score
GACGATCTCAGTCTCCAGACGTGCTAG	-0.248 z-score
TTAGGTTTCGGTCTCCGTTAGTGCTAG	8.93 z-score
TCCTCTGTCATTTTCTCTTAGTGCTAG	0.777 z-score
GACGGTATCGACAATCGGGACGTGCTA	-0.432 z-score
TTAGATTTCGGGTTTAGATTAGTGCTA	1.74 z-score
TTAGGTATCGGATATCGGTTAGTGCTA	0.489 z-score
TCATATATCATTTAATTACTGTGCTAG	0.856 z-score
TTAGGTTTCCTCTCCCTTTAGTGCTAG	1.22 z-score
GACGGTTCCGGTATCGGGACGTGCTAG	1.9 z-score
GACGATTTCGGAACTGGAGACGTGCTA	0.429 z-score
CAAGTGGAGCCCAGGCCAGAGTGCTAG	-0.762 z-score

Excerpt of the above (series 5):
Oligonucleotide	fluorescence intensity [a.u.]
TGCGCAACAACTTTTCACGTGTTCTTATGTCTAGAA	14000
CTATACTGTCATAGACCCGTGTGGAGGAGGCAGCGC	7230
AGCGCATCCCAGACACTCGTGTATCTAAATCCCAGT	8230
TGCGCAACAACTTGTCACATCACTTTATGTCTAGAA	3710
CTTTCCTTGGTCGCCGGCGTGACGGATTCGCTGGCG	5050
AAATTACTAAGTTTTCACGTGGTATACCCCGTATGA	13400
AAATTACTAAGTTTGCACGTGTTTTACCCCGTATGA	17800
TACCCGGATACTTATCATGTTATGGTCTTTAATCAA	4320
CATACCCAACCTTGCATTGTGGGTGAAGATATTTGT	6090
